# Assay results of several laboratories.
# ± gives the spread as reported.
Structure (SMILES),target or system,assay,system,conditions,how to read,endpoint,result
CN1CCC[C@]1(C)/C=C/S(=O)(=O)NC(=O)Nc1c2c(cc3c1CCC3)CCC2,,item: nervous system disorders,human,"oral, 50 mg twice daily, 14 days, multiple ascending dose",,subjects with adverse event,16.7%
Cc1cc(-c2ccc(C(=O)[C@@H]3CCCC[C@H]3C(=O)Nc3cnn4c3C(=O)NCC4)cc2)[nH]n1,,,"human, faeces","oral, 200 mg, 144-168 h",reference: dose,recovery of radioactivity per interval,0.4%
CCN(CC)CC#CCNc1ccnc2cc(Cl)ccc12,Salmonella typhimurium,mini-Ames test,TA102,"250.0 µg/well, without S9",,revertants per well,74
O=C1C2CC3CC1CC(C(=O)N1CCN(c4ccc([N+](=O)[O-])c5ncccc45)CC1)(C3)C2,Salmonella typhimurium,Ames test,TA98,"0.02 µg/well, without S9",reference: vehicle,revertant fold increase,1.4
CC[C@H](C)[C@@H]1NC(=O)[C@H](Cc2ccc(O)cc2)NC(=O)CCCSC[C@@H](C(=O)N(CC(=O)N[C@@H](CC(C)C)C(=O)NCC(N)=O)Cc2ccc(F)cc2)NC(=O)[C@H](CC(N)=O)NC(=O)[C@H](CCC(N)=O)NC1=O,,,"healthy women, plasma","intranasal, 400 µg single dose",,terminal half-life,39.6 min
CNS(=O)(=O)Nc1nccc(Cc2c(C)c3ccc(Oc4ncccc4F)cc3oc2=O)c1F,LAPC4,cell viability,,7 days,,IC50,> 1 µM
CCc1cc(C)cc(CC)c1-c1c(OC(=O)C2(C(F)(F)F)CCC2)n2n(c1=O)CCOCC2,,,PBS,"pH 7.4, 25 °C, 2% DMSO",,solubility,284 µM
COC1CN([C@H]2CC[C@H]([C@@]3(C)Oc4c(Cl)cc(C(=O)NCc5c(SC)cc(C)[nH]c5=O)c(C)c4O3)CC2)C1,,"RNA-seq, item: PHLDA1","human, whole blood","dose not given, 24 h",reference: pretreatment baseline,log2 fold change,1.16
CC[C@H](C)[C@H](NC(=O)[C@H](CC(N)=O)NC(=O)[C@@H](N)CCSC)C(=O)N[C@@H](CCSC)C(=O)N[C@@H](CC(=O)O)C(=O)N[C@@H](Cc1ccccc1)C(=O)N[C@@H](CC(N)=O)C(=O)N[C@H](C(=O)N[C@@H](CCCCN)C(=O)N[C@@H](CCCCN)C(=O)N[C@@H](CC(C)C)C(=O)N[C@@H](C)C(=O)N[C@@H](C)C(=O)N[C@@H](CC(=O)O)C(=O)N[C@@H](C)C(=O)NCC(=O)N[C@H](C(=O)N[C@@H](Cc1c[nH]c2ccccc12)C(=O)N[C@@H](CC(C)C)C(=O)N[C@@H](CO)C(=O)N[C@@H](CCCNC(=N)N)C(=O)N[C@@H](C)C(=O)N[C@H](C(=O)N[C@@H](CCC(N)=O)C(=O)N[C@@H](Cc1ccccc1)C(=O)N[C@H](C(=O)N[C@@H](CCC(=O)O)C(=O)N[C@@H](CCC(=O)O)C(=O)N[C@@H](CCCCN)C(=O)N[C@@H](CC(C)C)C(=O)NCC(=O)N[C@@H](CCC(N)=O)C(=O)N[C@@H](C)C(N)=O)[C@@H](C)O)C(C)C)[C@@H](C)O)C(C)C,,circular dichroism,aqueous TFE,"50 µM, pH 7.4, 20 °C",,m value,1.13 ± 0.1 kcal/mol/M
C=CC(=O)N1CCCC(n2c(=O)c3ncccc3n(Cc3ccc(Oc4ccccc4)cc3)c2=O)C1 (stereo not shown),,,"male BALB/c mouse, plasma","oral, 200 mg/kg, 5 min",,concentration,9800 ng/mL
Cc1ncsc1-c1ccc(C(C)NC(=O)C2CC(O)CN2C(=O)C(NC(=O)CCCCCCCCCCN2CCCC(Nc3ncc(Cl)c(Nc4ccccc4S(=O)(=O)C(C)C)n3)C2)C(C)(C)C)cc1 (stereo not shown),22Rv1,"RNA-seq, item: PTER mRNA",,concentration not given,reference: DMSO,log2 fold change,-1.13
O=C1NCC(COc2cccc3c(NCc4ccco4)cc(Cl)nc23)O1 (stereo not shown),,,"C57BL/6 mouse, heart","oral, 30 mg/kg, 0.5 h",reference: heart over plasma,tissue/plasma ratio,0.447
CN1CCCNC(=O)c2cccc(c2)C(=O)NCCCN(C)CCCNc2cccc3c2C(=O)c2cccc(c2C3=O)NCCC1,SAS,"RNA-Seq, item: PEX1 mRNA",,"1 µM, 6 h",reference: untreated cells,log2 fold change,0.862
CCCCC/C=C\CCCO[Si](CCCCCCN(C)C)(OCCC/C=C\CCCCC)OCCC/C=C\CCCCC,,,,"pH 7.5, formulated",,zeta potential,0.54 mV
COc1cccc(OC)c1-c1cc(C(=O)NC2(C(=O)O)C3CC4CC(C3)CC2C4)nn1-c1ccc(C(=O)N(C)CCCN(C)CCCN(C)C(=O)[C@H](CCCCNC(=O)[C@H](CC(C)C)NC(=O)C2OC2C(=O)O)NC(=O)CN2CCN(CC(=O)[O-])CCN(CC(=O)[O-])CCN(CC(=O)[O-])CC2)cc1C(C)C.[177Lu+3] (mixture of isomers),,,mouse HT-29 xenograft,"24 h, biodistribution",reference: tumour over large intestine,tumour-to-large intestine ratio,17.9
C=C(NC(=O)c1csc(-c2nc3c(cc2O)-c2nc(cs2)C(=O)NC(C(C)O)C(=O)NC(=C(C)OC)c2nc(cs2)C(=O)NC2c4nc(cs4)C(=O)NC(COC(=O)c4c5c6c(cccc6n4O)COC(=O)C(OC4CC(C)(O)C(N(C)C)C(C)O4)C2OC5)c2nc-3cs2)n1)C(N)=O (stereo not shown),,,"male Sprague-Dawley rat, plasma","intravenous, 2 mg/kg, single dose, infusion",,Cmax,2310 ng/mL
CN(C)S(=O)(=O)c1ccc(S(=O)(=O)N2CCC(n3c(=O)[nH]c4ccccc43)CC2)cc1,,HPLC,DMSO,"24 h, 20 °C",,solubility,~6700 µg/mL
CC[C@H](C)[C@H](NC(=O)[C@H](Cc1ccc(O)cc1)NC(=O)[C@@H](NC(=O)[C@H](CCCNC(=N)N)NC(=O)[C@@H](N)CC(=O)O)C(C)C)C(=O)N[C@@H](Cc1c[nH]cn1)C(=O)N1CCC[C@H]1C(=O)O,,LC-MS/MS,"Sprague-Dawley rats, both sexes, plasma","subcutaneous, 10 mg/kg/day, day 0",,AUC,15.8 ng·h/mL
C/C(N)=N/C(=N\S(=O)(=O)c1ccc(C(F)(F)F)cc1)N1C[C@H](c2ccccc2)C(c2ccc(Cl)cc2)=N1,,,"C57BL/6 mouse, lung","intravenous, 10 mg/kg",,Cmax,272000 ng/mL

# For quick reference, copied from above:
Structure (SMILES),target or system,assay,system,conditions,how to read,endpoint,result
CN1CCC[C@]1(C)/C=C/S(=O)(=O)NC(=O)Nc1c2c(cc3c1CCC3)CCC2,,item: nervous system disorders,human,"oral, 50 mg twice daily, 14 days, multiple ascending dose",,subjects with adverse event,16.7%
Cc1cc(-c2ccc(C(=O)[C@@H]3CCCC[C@H]3C(=O)Nc3cnn4c3C(=O)NCC4)cc2)[nH]n1,,,"human, faeces","oral, 200 mg, 144-168 h",reference: dose,recovery of radioactivity per interval,0.4%
